Experimental data of several laboratories.
Numbered parts are unrelated; each lists some results of a single study.
UniProt P07949, sequence (whole entry, looked up): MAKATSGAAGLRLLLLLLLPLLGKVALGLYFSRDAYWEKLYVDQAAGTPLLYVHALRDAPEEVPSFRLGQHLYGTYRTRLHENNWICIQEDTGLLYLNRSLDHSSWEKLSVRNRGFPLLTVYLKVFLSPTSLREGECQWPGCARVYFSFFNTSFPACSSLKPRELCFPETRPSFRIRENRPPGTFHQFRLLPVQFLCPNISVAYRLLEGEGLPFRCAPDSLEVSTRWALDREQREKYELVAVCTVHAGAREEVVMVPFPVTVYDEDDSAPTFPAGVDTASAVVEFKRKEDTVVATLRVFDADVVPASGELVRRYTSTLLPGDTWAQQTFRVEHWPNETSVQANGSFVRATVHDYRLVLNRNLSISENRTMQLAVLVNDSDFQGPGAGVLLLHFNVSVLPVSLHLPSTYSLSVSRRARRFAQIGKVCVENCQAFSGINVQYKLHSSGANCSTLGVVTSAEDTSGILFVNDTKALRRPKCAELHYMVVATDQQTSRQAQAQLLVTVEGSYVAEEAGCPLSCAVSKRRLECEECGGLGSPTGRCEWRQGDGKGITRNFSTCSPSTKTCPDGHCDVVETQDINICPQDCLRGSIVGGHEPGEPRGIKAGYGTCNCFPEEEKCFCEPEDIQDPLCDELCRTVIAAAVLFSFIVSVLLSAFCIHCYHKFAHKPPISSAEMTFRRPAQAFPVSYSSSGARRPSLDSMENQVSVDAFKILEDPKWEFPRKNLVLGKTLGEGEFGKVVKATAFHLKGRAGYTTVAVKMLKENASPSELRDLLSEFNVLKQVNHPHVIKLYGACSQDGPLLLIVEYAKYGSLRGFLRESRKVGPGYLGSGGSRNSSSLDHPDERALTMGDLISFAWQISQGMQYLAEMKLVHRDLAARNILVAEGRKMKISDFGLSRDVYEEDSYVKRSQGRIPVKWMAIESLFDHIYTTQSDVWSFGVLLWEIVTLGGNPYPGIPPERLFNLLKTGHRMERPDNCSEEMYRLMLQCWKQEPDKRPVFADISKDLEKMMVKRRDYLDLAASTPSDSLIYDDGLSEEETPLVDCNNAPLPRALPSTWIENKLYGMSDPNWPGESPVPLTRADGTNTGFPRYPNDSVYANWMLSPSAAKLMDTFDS
UniProt P51817, sequence (whole entry, looked up): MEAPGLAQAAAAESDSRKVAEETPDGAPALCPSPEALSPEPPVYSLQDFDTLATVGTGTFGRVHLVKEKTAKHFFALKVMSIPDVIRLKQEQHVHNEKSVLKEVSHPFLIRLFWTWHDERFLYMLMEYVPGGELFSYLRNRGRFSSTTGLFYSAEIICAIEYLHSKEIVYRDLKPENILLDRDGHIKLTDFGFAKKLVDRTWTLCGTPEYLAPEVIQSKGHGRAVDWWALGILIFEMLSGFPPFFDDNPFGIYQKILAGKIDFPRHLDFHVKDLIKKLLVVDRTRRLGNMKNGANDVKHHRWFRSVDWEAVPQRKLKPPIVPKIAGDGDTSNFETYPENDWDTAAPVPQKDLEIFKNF
UniProt Q76MJ5, sequence (whole entry, looked up): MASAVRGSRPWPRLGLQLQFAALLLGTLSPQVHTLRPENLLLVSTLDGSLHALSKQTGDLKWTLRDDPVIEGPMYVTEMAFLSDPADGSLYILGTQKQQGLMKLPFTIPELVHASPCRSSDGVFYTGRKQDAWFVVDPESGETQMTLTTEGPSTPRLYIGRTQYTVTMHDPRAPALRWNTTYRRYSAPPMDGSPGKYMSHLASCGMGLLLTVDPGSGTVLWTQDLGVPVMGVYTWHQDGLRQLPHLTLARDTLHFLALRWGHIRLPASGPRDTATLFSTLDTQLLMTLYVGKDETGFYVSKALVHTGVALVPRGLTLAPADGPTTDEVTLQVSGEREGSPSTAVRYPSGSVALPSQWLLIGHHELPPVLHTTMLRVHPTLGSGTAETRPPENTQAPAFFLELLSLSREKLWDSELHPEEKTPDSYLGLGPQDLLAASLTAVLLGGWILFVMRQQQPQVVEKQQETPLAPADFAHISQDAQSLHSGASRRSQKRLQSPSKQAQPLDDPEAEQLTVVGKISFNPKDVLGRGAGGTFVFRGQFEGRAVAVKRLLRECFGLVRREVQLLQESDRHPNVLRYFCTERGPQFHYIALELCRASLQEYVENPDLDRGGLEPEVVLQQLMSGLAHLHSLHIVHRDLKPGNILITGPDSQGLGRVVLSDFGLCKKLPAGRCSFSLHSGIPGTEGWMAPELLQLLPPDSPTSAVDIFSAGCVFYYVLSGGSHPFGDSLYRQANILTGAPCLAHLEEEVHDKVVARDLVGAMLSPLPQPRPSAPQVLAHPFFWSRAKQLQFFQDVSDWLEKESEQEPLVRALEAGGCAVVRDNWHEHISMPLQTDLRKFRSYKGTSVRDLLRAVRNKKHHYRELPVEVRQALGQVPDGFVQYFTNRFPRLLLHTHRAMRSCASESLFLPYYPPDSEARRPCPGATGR
UniProt Q86SG6, sequence (whole entry, looked up): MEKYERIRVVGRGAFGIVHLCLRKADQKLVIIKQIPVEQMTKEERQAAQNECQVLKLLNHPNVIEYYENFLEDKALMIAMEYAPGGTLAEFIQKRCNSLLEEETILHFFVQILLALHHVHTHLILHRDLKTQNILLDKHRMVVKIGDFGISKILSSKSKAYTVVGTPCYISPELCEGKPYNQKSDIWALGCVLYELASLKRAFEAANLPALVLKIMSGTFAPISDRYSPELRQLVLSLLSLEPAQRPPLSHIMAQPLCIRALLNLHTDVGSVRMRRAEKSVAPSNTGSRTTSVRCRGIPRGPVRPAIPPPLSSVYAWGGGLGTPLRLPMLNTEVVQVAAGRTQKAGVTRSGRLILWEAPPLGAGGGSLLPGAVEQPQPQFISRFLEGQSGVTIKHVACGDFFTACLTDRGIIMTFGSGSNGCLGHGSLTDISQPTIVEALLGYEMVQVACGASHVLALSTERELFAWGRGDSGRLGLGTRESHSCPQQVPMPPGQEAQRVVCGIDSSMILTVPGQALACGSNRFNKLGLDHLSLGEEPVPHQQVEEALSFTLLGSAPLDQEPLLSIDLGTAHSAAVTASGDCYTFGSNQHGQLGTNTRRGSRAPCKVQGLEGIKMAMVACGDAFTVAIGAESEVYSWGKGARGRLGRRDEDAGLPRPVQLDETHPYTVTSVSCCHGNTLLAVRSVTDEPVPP
UniProt Q9H4B4, sequence (whole entry, looked up): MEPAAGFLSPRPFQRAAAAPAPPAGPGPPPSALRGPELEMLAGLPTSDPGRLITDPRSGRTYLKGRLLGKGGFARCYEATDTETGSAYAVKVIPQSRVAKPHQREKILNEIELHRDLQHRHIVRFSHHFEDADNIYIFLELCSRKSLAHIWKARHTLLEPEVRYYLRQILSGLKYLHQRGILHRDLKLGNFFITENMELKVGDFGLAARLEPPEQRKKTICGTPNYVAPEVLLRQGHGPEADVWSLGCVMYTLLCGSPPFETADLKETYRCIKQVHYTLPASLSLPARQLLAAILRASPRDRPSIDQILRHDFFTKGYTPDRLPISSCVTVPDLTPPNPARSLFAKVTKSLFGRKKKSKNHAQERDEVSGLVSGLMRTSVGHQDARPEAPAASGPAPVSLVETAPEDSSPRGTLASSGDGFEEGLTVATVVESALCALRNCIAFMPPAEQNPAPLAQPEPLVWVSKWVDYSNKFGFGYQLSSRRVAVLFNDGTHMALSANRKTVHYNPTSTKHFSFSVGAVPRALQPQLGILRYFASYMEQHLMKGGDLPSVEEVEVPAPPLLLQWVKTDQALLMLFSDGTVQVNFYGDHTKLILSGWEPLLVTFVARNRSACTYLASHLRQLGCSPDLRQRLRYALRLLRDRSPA
UniProt Q8IVT5, sequence (whole entry, looked up): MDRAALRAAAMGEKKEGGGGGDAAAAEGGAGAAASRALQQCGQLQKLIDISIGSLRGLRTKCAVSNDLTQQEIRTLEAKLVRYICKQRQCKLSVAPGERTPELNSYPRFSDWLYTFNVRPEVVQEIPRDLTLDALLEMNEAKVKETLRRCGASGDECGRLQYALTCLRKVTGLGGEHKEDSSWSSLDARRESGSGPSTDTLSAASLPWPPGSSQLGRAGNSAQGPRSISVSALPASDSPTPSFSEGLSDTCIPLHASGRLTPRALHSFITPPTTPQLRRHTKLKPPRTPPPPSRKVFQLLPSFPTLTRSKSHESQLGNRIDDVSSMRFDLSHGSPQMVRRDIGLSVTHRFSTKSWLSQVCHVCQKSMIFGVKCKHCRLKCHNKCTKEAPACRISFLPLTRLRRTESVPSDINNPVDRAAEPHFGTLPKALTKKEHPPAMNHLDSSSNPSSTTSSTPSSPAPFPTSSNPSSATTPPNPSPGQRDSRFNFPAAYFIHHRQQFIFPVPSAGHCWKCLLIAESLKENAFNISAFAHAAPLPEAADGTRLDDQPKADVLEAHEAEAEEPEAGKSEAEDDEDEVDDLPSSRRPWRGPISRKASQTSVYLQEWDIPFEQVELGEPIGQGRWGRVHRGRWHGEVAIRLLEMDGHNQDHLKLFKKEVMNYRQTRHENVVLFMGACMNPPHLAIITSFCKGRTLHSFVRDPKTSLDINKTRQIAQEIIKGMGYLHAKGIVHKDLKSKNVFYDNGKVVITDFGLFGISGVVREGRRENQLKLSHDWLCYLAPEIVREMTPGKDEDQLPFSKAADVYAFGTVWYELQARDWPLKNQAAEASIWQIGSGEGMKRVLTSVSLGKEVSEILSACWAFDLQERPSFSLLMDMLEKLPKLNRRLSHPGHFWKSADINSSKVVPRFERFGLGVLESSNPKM

Set 1
SMILES: O=C(Nc1cnn(-c2csc(C(=O)NC3COC3)c2)c1)Nc1ccccc1Cl
Observed: enzyme activity
Tested at: 5 µM
target | test | how to read | remaining activity [%]
Serine/threonine-protein kinase Nek5 (NEK5, Homo sapiens, UniProt Q6P3R8) |  | baseline: untreated control | 107
Serine/threonine-protein kinase 16 (STK16, Homo sapiens, UniProt O75716) |  | baseline: untreated control | 94.1
Kinase suppressor of Ras 1 (KSR1, Homo sapiens, UniProt Q8IVT5) |  | baseline: untreated control | 100
Myosin light chain kinase 2, skeletal/cardiac muscle (MYLK2, Homo sapiens, UniProt Q9H1R3) |  | baseline: untreated control | 89.2
Serine/threonine-protein kinase PLK3 (PLK3, Homo sapiens, UniProt Q9H4B4) |  | baseline: untreated control | 93.6
Tyrosine-protein kinase ZAP-70 (ZAP70, Homo sapiens, UniProt P43403) |  | baseline: untreated control | 98.4
Citron Rho-interacting kinase (CIT, Homo sapiens, UniProt O14578) | inhibitor |  | 90.1
MAP kinase-interacting serine/threonine-protein kinase 2 (MKNK2, Homo sapiens, UniProt Q9HBH9) |  | baseline: untreated control | 96.8
Serine/threonine-protein kinase LATS2 (LATS2, Homo sapiens, UniProt Q9NRM7) |  | baseline: untreated control | 92.7
cAMP-dependent protein kinase catalytic subunit PRKX (PRKX, Homo sapiens, UniProt P51817) |  | baseline: untreated control | 102
Serine/threonine-protein kinase D2 (PRKD2, Homo sapiens, UniProt Q9BZL6) |  | baseline: untreated control | 94.9
Serine/threonine-protein kinase/endoribonuclease IRE2 (ERN2, Homo sapiens, UniProt Q76MJ5) | inhibitor |  | 100
Casein kinase II subunit alpha' (CSNK2A2, Homo sapiens, UniProt P19784) |  | baseline: untreated control | 94.9

Set 2
Target: 5-hydroxytryptamine receptor 5A (HTR5A, Homo sapiens, UniProt P47898)
UniProt P47898, sequence (whole entry, looked up): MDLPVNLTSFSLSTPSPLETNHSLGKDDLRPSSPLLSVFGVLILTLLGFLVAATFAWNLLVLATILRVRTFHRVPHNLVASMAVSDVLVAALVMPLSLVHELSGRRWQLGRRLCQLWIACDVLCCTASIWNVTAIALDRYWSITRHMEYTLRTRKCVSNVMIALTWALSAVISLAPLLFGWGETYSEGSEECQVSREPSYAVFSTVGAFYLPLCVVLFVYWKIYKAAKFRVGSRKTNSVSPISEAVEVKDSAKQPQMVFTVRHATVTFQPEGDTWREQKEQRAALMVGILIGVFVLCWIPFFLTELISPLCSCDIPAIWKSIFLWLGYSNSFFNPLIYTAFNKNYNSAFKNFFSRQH
Observed: cell-free assay
Tested at: 10 µM
SMILES | inhibition
CC(=O)Nc1c(F)cc(C(=O)N[C@H]2CC[C@H](O)CC2)cc1O[C@@H](C)c1ccccc1 | -8.96%
CN(C)CC#Cc1ccc(OCCCc2sc(N3CCc4cccc(C(=O)Nc5nc6ccccc6s5)c4C3)nc2C(=O)O)c(F)c1 | -3.1%
O=C(NCCCC1CCCCC1)c1ccc(CNC(=O)c2cnn(-c3ccccc3)c2C(F)(F)F)cc1 | 17%
Cc1c(C(=O)O)cc(-c2ccc(C3CCNCC3)cc2)c2ccc(-c3ccc(C(F)(F)F)cc3)cc12 | -0.81%
O=C(Nc1ccc(-n2nc(-c3cccnc3)cc2C(F)(F)F)cn1)c1ccc(-c2ccccc2)c(F)c1 | -2.92%
O=C(Nc1ccc(Oc2ccc(F)cc2)cc1)N1CCc2ncccc2[C@H]1c1ccc(F)cc1 | 7.18%
N#Cc1ccc(Nc2ccc3[nH]c(=O)[nH]c3c2)c(Cl)c1 | -7.6%
CCOCCn1cc(C(=O)Nc2ccc(-n3nc(-c4cccnc4)cc3C(F)(F)F)cn2)ccc1=O | -16.3%
Nc1c(C(=O)NCc2ccc(C(=O)NCCCC3CCCCC3)cc2)cnn1-c1ccccc1 | 9.6%
CC(=O)N1CCC(c2ccc(C(=O)NC(=N)N)cc2C(F)(F)F)CC1 | -4.89%
COc1ccc2c(c1)O[C@H](c1ccc(OC)c(OC)c1)C[C@@H]2NC(=O)C1(c2ccc3c(c2)OC(F)(F)O3)CC1 | -7.95%

Set 3
Target: Phosphorylase b kinase gamma catalytic chain, skeletal muscle/heart isoform (PHKG1, Homo sapiens, UniProt Q16816)
Observed: enzyme activity
Mode: inhibitor
Tested at: 0.5 µM
Baseline: control
Residues (Q16816 1-387): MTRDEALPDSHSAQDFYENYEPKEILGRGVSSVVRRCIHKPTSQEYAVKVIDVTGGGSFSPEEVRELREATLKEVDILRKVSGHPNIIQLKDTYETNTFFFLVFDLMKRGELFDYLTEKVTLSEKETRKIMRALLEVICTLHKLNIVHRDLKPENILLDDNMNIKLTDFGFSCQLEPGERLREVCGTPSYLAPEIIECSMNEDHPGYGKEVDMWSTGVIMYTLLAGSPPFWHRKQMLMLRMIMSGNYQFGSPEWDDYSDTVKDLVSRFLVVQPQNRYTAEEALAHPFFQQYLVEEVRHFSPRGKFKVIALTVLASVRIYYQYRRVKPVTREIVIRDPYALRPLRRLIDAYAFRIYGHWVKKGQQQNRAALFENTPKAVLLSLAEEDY
SMILES | remaining activity [%]
Cc1nc(-c2ccccc2)c(-c2ccncc2)o1 | 96.1
O=c1c2ccccc2[nH]c(=S)n1CCN1CCC(=C(c2ccc(F)cc2)c2ccc(F)cc2)CC1 | 101
CCOC(=O)c1c(C)[nH]c(/C=C2\C(=O)Nc3ccccc32)c1C | 73.3
O=C(O)c1ccc2c3c1cccc3c(=O)n1c3ccccc3nc21 | 91.5
Cc1ccc(NC(=O)c2ccc(CN3CCN(C)CC3)cc2)cc1Nc1nc(-c2cccnc2)cs1 | 92.2
OCC(O)CCON=C1C(c2c(O)[nH]c3ccccc23)=Nc2ccccc21 (stereo not shown) | 8.06
COc1cc2nccc(Oc3ccc(NC(=S)NC(=O)c4ccccc4C)cc3)c2cc1OC | 89.2
Oc1ccc(-c2nc(-c3ccncc3)c(-c3ccc(F)cc3)[nH]2)cc1 | 94.2
Nc1ncnc2n[nH]c(Nc3ccc(F)cc3)c12 | 87.5
Cn1c2ccccc2c2c3c(c4c5ccccc5n(CCC#N)c4c21)CNC3=O | 1.76
Cn1sc(=O)n(Cc2ccccc2)c1=O | 102
O=C1NC(=O)C(c2cn(CCCn3ccnc3)c3ccccc23)=C1Nc1ccccc1 | 64.6
O=C(Nc1cccc(Nc2cc(Nc3cccc(C(F)(F)F)c3)ncn2)c1)C1CC1 | 100
COc1ccc(OC)c2c(=S)c3ccccc3[nH]c12 | 83
CC(C)[C@H](CO)Nc1nc(Nc2cc(N)cc(Cl)c2)c2ncn(C(C)C)c2n1 | 81.1
O=C1NC(=O)C(c2cn(CCCO)c3ncccc23)=C1c1cnccn1 | 87.2

Set 4
Compound: COc1cc(/C=C(\C#N)C(=O)c2ccc(O)c(O)c2)cc(I)c1O
Mode: inhibitor
Tested at: 5 µM
target | test | test system | setting | how to read | log2 fold change
Serine/threonine-protein kinase DCLK2 (DCLK2, Homo sapiens, UniProt Q8N568) |  | human cells |  | baseline: vehicle | 0.155
Proto-oncogene tyrosine-protein kinase receptor Ret (RET, Homo sapiens, UniProt P07949) | kinase-CDC37 interaction | human cells |  | baseline: vehicle | 0.084
Receptor tyrosine-protein kinase erbB-4 (ERBB4, Homo sapiens, UniProt Q15303, E872K) | kinase–CDC37 interaction |  | ERBB4 E872K oncogenic mutant | baseline: vehicle control | -0.127
cGMP-dependent protein kinase 2 (PRKG2, Homo sapiens, UniProt Q13237) | kinase activity |  | cell-based kinome screen | baseline: vehicle | 0.019
Serine/threonine-protein kinase Nek8 (NEK8, Homo sapiens, UniProt Q86SG6) | kinase–CDC37 interaction |  | kinome plate 1@G12 | baseline: vehicle | -0.253
Serine/threonine-protein kinase B-raf (BRAF, Homo sapiens, UniProt P15056, E586K) | cell-based kinome profiling | human cells |  | baseline: vehicle control | -0.177
kinase–CDC37 interaction | kinase–CDC37 binding | human cells | oncogenic ETV6-NTRK3 fusion | baseline: vehicle | 0.137
cAMP-dependent protein kinase catalytic subunit beta (PRKACB, Homo sapiens, UniProt P22694) | cell-based kinome screen | human cells |  | baseline: untreated control | 0.651
Atrial natriuretic peptide receptor 2 (NPR2, Homo sapiens, UniProt P20594) | cell-based kinome screen | human cells |  | baseline: untreated control | 0.17 log2

Some of these lines once more (set 2):
SMILES | inhibition
COc1ccc2c(c1)O[C@H](c1ccc(OC)c(OC)c1)C[C@@H]2NC(=O)C1(c2ccc3c(c2)OC(F)(F)O3)CC1 | -7.95%
Cc1c(C(=O)O)cc(-c2ccc(C3CCNCC3)cc2)c2ccc(-c3ccc(C(F)(F)F)cc3)cc12 | -0.81%
CN(C)CC#Cc1ccc(OCCCc2sc(N3CCc4cccc(C(=O)Nc5nc6ccccc6s5)c4C3)nc2C(=O)O)c(F)c1 | -3.1%
N#Cc1ccc(Nc2ccc3[nH]c(=O)[nH]c3c2)c(Cl)c1 | -7.6%
O=C(NCCCC1CCCCC1)c1ccc(CNC(=O)c2cnn(-c3ccccc3)c2C(F)(F)F)cc1 | 17%
CC(=O)N1CCC(c2ccc(C(=O)NC(=N)N)cc2C(F)(F)F)CC1 | -4.89%
